Measured values from different studies.
Numbers after ± are the reported error.

Nc1ncnc2c([C@@H]3N[C@H](CO)[C@@H](O)[C@H]3O)c[nH]c12 — inhibition (Chikungunya virus; viral replication; HeLa, AF 15561; 100 µM): 26.3%
Cn1cnc(Cn2c(=O)[nH]/c(=N\c3cc4cn(C)nc4cc3Cl)n(Cc3cc(F)c(F)cc3F)c2=O)n1 — AUC(0-inf) (human, mild renal impairment, plasma; oral, 375 mg single dose): 1430 µg·h/mL
QFAPSASAFFGMSRI — responding donors (human CD4 T cells; AIM; peptide): 17%
CC[C@H](C)[C@H](NC(=O)[C@H](CC(C)C)NC(=O)[C@H](Cc1c[nH]c2ccccc12)NC(=O)[C@H](CCC(N)=O)NC(=O)[C@@H](NC(=O)[C@H](Cc1ccccc1)NC(=O)[C@H](C)NC(=O)[C@H](CCCCNC(=O)COCCOCCNC(=O)COCCOCCNC(=O)CC[C@H](NC(=O)CCCCCCCCCCCCCCCCCCC(=O)O)C(=O)O)NC(=O)[C@H](CCC(N)=O)NC(=O)[C@H](C)NC(=O)[C@@H](NC(=O)[C@H](CCCCN)NC(=O)[C@H](CC(=O)O)NC(=O)[C@H](CC(C)C)NC(=O)C(C)(C)NC(=O)[C@@H](NC(=O)[C@H](CO)NC(=O)[C@H](Cc1ccc(O)cc1)NC(=O)[C@H](CC(=O)O)NC(=O)[C@H](CO)NC(=O)[C@@H](NC(=O)[C@H](Cc1ccccc1)NC(=O)[C@@H](NC(=O)CNC(=O)[C@H](CCC(=O)O)NC(=O)C(C)(C)NC(=O)[C@@H](N)Cc1ccc(O)cc1)[C@@H](C)O)[C@@H](C)O)[C@@H](C)CC)[C@@H](C)CC)C(C)C)C(=O)N[C@@H](C)C(=O)NCC(=O)NCC(=O)N1CCC[C@H]1C(=O)N[C@@H](CO)C(=O)N[C@@H](CO)C(=O)NCC(=O)N[C@@H](C)C(=O)N1CCC[C@H]1C(=O)N1CCC[C@H]1C(=O)N1CCC[C@H]1C(=O)N[C@@H](CO)C(N)=O — serum ALT (healthy subjects, serum; 4.5 mg, baseline, multiple ascending dose): 27 ± 10.8 U/L
DFLEYHDVRVVLDFI — responding donors (human CD4 T cells; AIM; peptide): 18%
O.c1cnc2c(c1)ccc1cccnc12 — inhibition (Replicase polyprotein 1ab, main protease (rep, Severe acute respiratory syndrome coronavirus 2, UniProt P0DTD1); reporter gene (mKate2), inhibitor; 20 µM): -0.976%
